Experimental data pooled from the literature.
Lines come from different studies, so protocols differ. “And” joins repeats or separate records; there may be more than shown. Numbers after ± are the reported error.

O=C(N[C@H](Cc1ccc(-c2ccccc2)cc1)C(=O)NCCNc1ccc([N+](=O)[O-])c2nonc12)c1ccc(-c2ccc(OP(=O)(O)O)cc2)cc1: “time to cellular uptake” ≤ 5 min (PC-3; fluorescence imaging; 50 µM).
The IC50 of CCCCN(C=O)c1c(CC)nc2ccc(C(=O)N(C)Cc3ccco3)cn12 is reported as 13.6 µM (SH-SY5Y; cytotoxicity, sulforhodamine B; 72 h).
For CCCCCCCCCCCCCC(=O)N[C@H]1C(=O)N[C@@H](CN)C(=O)N[C@@H](CO)C(=O)N[C@@H](Cc2ccc(O)cc2)C(=O)O[C@H]1C, the survival was 83.9% (HEK293; MTT; 32 mg).
For CC(C)Cc1ccc(C(C)C(=O)[O-])cc1.CC(C)Cc1ccc(C(C)C(=O)[O-])cc1.[Cu+2].c1ccncc1.c1ccncc1 (stereo not drawn), the IC50 was > 100 µM (PC-3; cytotoxicity, MTT; 48 h).
CN1CCN(c2ccc(Nc3cc4[nH]c(-c5cccc(F)c5)cc4cn3)cc2)CC1: cytotoxicity “toxic” (SH-SY5Y; sulforhodamine B; concentration not given).
With C#Cc1ccc(N2CCOCC2)c(/C=N/NC(=O)CCl)c1 the IC50 was 72.9 µM (THLE-2; cell growth or viability, ATP luminescence; 24 h).
With CNC(=O)C[C@H](Cc1ccncc1)NC(=O)[C@@H](Cc1cccc(Br)c1)NC(=O)[C@@H](N)Cc1cccc(F)c1 the viability was 1.01 and 1.05 and 0.983 (Huh-7-ACE2; CellTiter-Glo; 0.391 µM, 48 h, unit not given; baseline: DMSO).
CC(=O)N[C@H]1[C@H](Oc2ccc(C[C@H](NC(=O)CN)C(=O)N[C@@H](CCC(=O)O)C(=O)N[C@H](C(=O)N[C@@H](Cc3c[nH]cn3)C(=O)N[C@@H](Cc3c[nH]cn3)C(=O)N[C@@H](CCC(N)=O)C(=O)N[C@@H](CCCCN)C(=O)N[C@@H](CC(C)C)C(=O)N[C@H](C(=O)N[C@@H](Cc3ccccc3)C(=O)N[C@@H](Cc3ccccc3)C(=O)N[C@@H](C)C(N)=O)C(C)C)C(C)C)cc2)O[C@H](CO)[C@H](O)[C@@H]1O gave a viability of 95.6% and 95.9% and 86.7% and 96.3% (SH-SY5Y; CCK-8; 50 µM, 24 h; baseline: untreated).
CNC(=O)CC[C@H](Cc1ccccc1)NC(=O)[C@@H](Cc1ccc(Cl)cc1Cl)NC(=O)[C@H](N)Cc1ccccc1[N+](=O)[O-] has a viability of 0.868 and 0.977 and 0.886 (Huh-7-ACE2; CellTiter-Glo; 0.195 µM, 48 h, unit not given; baseline: DMSO).
For CC1CCC(C(C)(C)C(=O)Nc2ccc(Oc3ccccc3)cc2)CC1 (stereo not drawn), the IC50 was 15.4 µM (HEK293T; cytotoxicity; 3 days).
Under “cellular iridium uptake”, S=c1n(-c2ccccc2)c2c3ccccc3nc3[n+]2[n]1[Ir-3]12([S]3)([c]3cccc4ccc5ccc[n+]1c5c34)[c]1cccc3ccc4ccc[n+]2c4c13 is recorded as 1.01 ± 0.18 fmol/cell (MRC9; ICP-MS; 10 µM, 24 h, 37 °C).
CNC(=O)C[C@H](Cc1ccc(F)cc1)NC(=O)[C@@H](Cc1ccc(Cl)cc1Cl)NC(=O)[C@H](N)Cc1ccccc1[N+](=O)[O-] has a viability of 1.09 and 1.06 and 0.991 (Huh-7-ACE2; CellTiter-Glo; 0.0244 µM, 48 h, unit not given; baseline: DMSO).
CCCCNC(=O)c1ccc2nc(CC)c(N(C)Cc3ccc(OC)cc3)n2c1 — result for “cell density reduction”: 49% (SH-SY5Y; sulforhodamine B; 100 µM, 72 h).
CNC(=S)N/N=C/c1ccc(OCc2ccccc2)cc1 has a viability of 58.8% (IMR-32; MTT; 300 µg/mL, 24 h; baseline: untreated control).
The viability of CNC(=O)C[C@H](Cc1ccc(F)cc1)NC(=O)[C@@H](Cc1ccc(Cl)cc1Cl)NC(=O)[C@H](N)Cc1ccccc1C#N is reported as 0.912 and 0.97 and 0.896 (Huh-7-ACE2; CellTiter-Glo; 0.0488 µM, 48 h, unit not given; baseline: DMSO).
With O=c1n(CCNCCOS(=O)(=O)c2ccccc2)c(=O)n(S(=O)(=O)c2ccccc2)c(=O)n1S(=O)(=O)c1ccccc1 the viability was 38.7% (HUVEC; cell growth or viability, MTT; 25 µg/mL, 48 h).
For CC(=O)NCC(=O)N[C@@H](CCCNC(=N)N)C(=O)N[C@@H](CCCCN)C(=O)N[C@@H](CCCCN)C(=O)N[C@@H](CCCNC(=N)N)C(=O)N[C@@H](CCCNC(=N)N)C(=O)N[C@@H](CCC(N)=O)C(=O)N[C@@H](CCCNC(=N)N)C(=O)N[C@@H](CCCNC(=N)N)C(=O)N[C@@H](CCCNC(=N)N)C(=O)N1CCC[C@H]1C(=O)N[C@@H](CCC(N)=O)C(N)=O, “cytoplasmic peptide amount” read 0.0636 nmol and 0.0588 nmol and 0.0794 nmol (HEK293T; subcellular fractionation LC-MS; cytoplasm; 20 µM, 2 h).
COc1cc(C(=O)C(=O)N2CCCC[C@H]2C(=O)OC(CCCc2ccccc2)CCCc2cccnc2)cc(OC)c1OC (stereo partly drawn): toxicity “toxic” (mouse CD8+ T cells; 10 µM).
CN(C)CCCNC(=O)[C@@H]1NC(=O)[C@@H]2Cc3ccc(cc3)Oc3cc4cc(c3O)-c3ccc5c(c[nH]c5c3)C[C@@H](NC(=O)C(NC(=O)CCCCCN)c3ccc(O)cc3)C(=O)N[C@H](c3ccc(O)cc3)C(=O)N[C@H]4C(=O)N[C@@H](C(=O)N2C)c2ccc(cc2)Oc2cc1ccc2O (stereo partly drawn) gave a hemolysis of 0% (human red blood cells; PBS; 256 µg/mL, 1 h, pH 7.4, 37 °C).
The viability of CNC(=O)C[C@H](Cc1ccccc1)NC(=O)[C@@H](Cc1ccc(Cl)cc1Cl)NC(=O)[C@H](N)Cc1ccccc1C#N is reported as 1.03 and 1.07 and 1.1 (Huh-7-ACE2; CellTiter-Glo; 0.0244 µM, 48 h, unit not given; baseline: DMSO).
With CCCCCCCCCCCC1CC(=O)N[C@@H](CO)C(=O)N[C@H](CO)C(=O)N[C@H](C)C(=O)N(C)[C@@H](C(C)C)C(=O)N[C@H](CO)C(=O)N[C@H](CCCCN)C(=O)N[C@H](CO)C(=O)N[C@@H](CCCCN)C(=O)O1 (stereo partly drawn) the survival was 92.9% (HEK293; MTT; 32 mg).
CNC(=O)C[C@H](Cc1ccncc1)NC(=O)[C@@H](Cc1cccc(Br)c1)NC(=O)[C@@H](N)Cc1ccsc1 gave a viability of 1.04 and 0.927 and 0.902 (Huh-7-ACE2; CellTiter-Glo; 6.25 µM, 48 h, unit not given; baseline: DMSO).
For O=C(Nc1cccnc1)c1cccc(C2(CNCc3ccc(F)c(F)c3)CC2)c1, the cell density was > 100% (SH-SY5Y; sulforhodamine B; 100 µM, 72 h, cytotoxicity).
CCCCCCCCCCCC1CC(=O)N[C@H]([C@H](C)O)C(=O)N[C@@H](CN)C(=O)N[C@@H](CO)C(=O)N[C@@H](Cc2ccc(O)cc2)C(=O)O1 (stereo partly drawn) gave a survival of 84.1% (HEK293; MTT; 32 mg).
With CNC(=O)CC1CN(C(=O)c2ccc(C(F)(F)F)cn2)CCN1C(=O)c1cccnn1 (stereo not drawn) the viability was 1.07 and 0.995 and 1.09 (Huh-7-ACE2; CellTiter-Glo; 0.0061 µM, 48 h, unit not given; baseline: DMSO).
With Cc1cnccc1-n1[se]c2ccccc2c1=O the CC50 was > 100 µM (HPAEpiC; cell growth or viability, MTT; 24 h).
For CCCCCCc1cccc([C@H](O)C[C@H](CO)NC(=O)CCCCCCCCCCBr)c1, the living cells was 95% and 96% and 90% (HeLa; 1 µM, lipidomics treatment).

For quick reference, copied from above:
With O=c1n(CCNCCOS(=O)(=O)c2ccccc2)c(=O)n(S(=O)(=O)c2ccccc2)c(=O)n1S(=O)(=O)c1ccccc1 the viability was 38.7% (HUVEC; cell growth or viability, MTT; 25 µg/mL, 48 h).
For CC(=O)NCC(=O)N[C@@H](CCCNC(=N)N)C(=O)N[C@@H](CCCCN)C(=O)N[C@@H](CCCCN)C(=O)N[C@@H](CCCNC(=N)N)C(=O)N[C@@H](CCCNC(=N)N)C(=O)N[C@@H](CCC(N)=O)C(=O)N[C@@H](CCCNC(=N)N)C(=O)N[C@@H](CCCNC(=N)N)C(=O)N[C@@H](CCCNC(=N)N)C(=O)N1CCC[C@H]1C(=O)N[C@@H](CCC(N)=O)C(N)=O, “cytoplasmic peptide amount” read 0.0636 nmol and 0.0588 nmol and 0.0794 nmol (HEK293T; subcellular fractionation LC-MS; cytoplasm; 20 µM, 2 h).
